Results from different studies.
Lines come from different studies, so protocols differ. “And” joins repeats or separate records; there may be more than shown. ± gives the spread as reported.
U2AF2: U2AF2 148-342 (Homo sapiens, UniProt P26368)
Sequence of UniProt P26368 (whole entry, looked up): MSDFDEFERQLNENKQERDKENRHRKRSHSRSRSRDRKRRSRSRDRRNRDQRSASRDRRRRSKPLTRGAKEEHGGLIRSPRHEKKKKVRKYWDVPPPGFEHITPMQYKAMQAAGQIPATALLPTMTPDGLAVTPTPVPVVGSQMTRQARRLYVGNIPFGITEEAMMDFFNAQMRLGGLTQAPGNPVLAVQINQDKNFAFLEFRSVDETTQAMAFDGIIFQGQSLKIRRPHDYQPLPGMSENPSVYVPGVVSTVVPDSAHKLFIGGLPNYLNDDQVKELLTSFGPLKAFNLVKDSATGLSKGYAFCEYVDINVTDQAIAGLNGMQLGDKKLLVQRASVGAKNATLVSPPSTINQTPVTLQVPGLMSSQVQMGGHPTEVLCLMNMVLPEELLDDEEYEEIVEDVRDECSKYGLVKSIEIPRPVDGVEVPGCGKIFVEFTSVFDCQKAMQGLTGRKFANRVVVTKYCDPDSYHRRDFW
Sequence of UniProt P00760 (whole entry, looked up): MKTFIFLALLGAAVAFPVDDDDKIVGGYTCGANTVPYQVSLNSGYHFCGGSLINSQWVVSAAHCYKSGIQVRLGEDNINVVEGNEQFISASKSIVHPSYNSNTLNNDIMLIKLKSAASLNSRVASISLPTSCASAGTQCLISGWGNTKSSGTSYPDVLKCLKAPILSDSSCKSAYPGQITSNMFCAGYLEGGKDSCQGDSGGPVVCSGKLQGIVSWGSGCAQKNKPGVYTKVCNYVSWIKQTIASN
Sequence of UniProt Q9Y6L6 (whole entry, looked up): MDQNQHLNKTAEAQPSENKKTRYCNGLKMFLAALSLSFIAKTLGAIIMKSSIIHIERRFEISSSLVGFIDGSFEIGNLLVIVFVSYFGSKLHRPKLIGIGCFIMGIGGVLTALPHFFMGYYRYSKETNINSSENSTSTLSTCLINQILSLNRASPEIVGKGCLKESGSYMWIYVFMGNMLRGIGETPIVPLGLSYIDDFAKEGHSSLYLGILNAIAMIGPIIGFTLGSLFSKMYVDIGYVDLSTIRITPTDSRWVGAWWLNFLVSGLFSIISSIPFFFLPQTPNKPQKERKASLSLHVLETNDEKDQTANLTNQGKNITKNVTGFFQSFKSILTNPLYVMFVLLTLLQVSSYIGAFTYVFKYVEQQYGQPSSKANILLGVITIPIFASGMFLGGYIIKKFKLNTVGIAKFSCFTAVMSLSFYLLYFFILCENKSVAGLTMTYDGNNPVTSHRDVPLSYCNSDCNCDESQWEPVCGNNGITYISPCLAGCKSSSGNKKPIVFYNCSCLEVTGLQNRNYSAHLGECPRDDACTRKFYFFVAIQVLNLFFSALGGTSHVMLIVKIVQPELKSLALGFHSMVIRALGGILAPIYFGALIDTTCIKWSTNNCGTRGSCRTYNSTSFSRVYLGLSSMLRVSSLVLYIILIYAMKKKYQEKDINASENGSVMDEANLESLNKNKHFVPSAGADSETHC

Substance | target or system | assay | test system | setting | scale | endpoint | value
GCAGUUAUU (ssRNA) | U2AF2 | sequencing of bound RNA | RNA | motif only | – | Kd | 2360 nM
coproporphyrin I | SLCO1B1 (Homo sapiens, UniProt Q9Y6L6) | transporter uptake, inhibitor | – | with: GCDCA-G | – | IC50 | 565 ± 138 nM
Polymyxin B | – | LC-MS | Sprague-Dawley rat, cerebellum | intracerebroventricular, 0.75 mg/kg, 1 h | – | concentration | 0.21 mg/L and 0.48 mg/L and 0.05 mg/L and 0.31 mg/L and 0.2 mg/L
Pexiganan | Serine protease 1 (PRSS1, Bos taurus, UniProt P00760) | LC-SLIPS | – | 0.1 mg/mL, 37 °C, bovine trypsin, with: 25000 ng/mL trypsin | – | incubation time to sliding time decrease | 5 to 10 min
CTOP | – | RP-HPLC | HALO Phenyl-hexyl column | 25 µM, formic acid/acetonitrile, 10 min gradient | – | retention time | 3.64 min
Teicoplanin | – | – | QC solution | 13 months, -40 °C, high QC level | – | recovery | 95.3%
Triton X-100 | HeLa | – | – | concentration not given, 4 h | reference: positive control | LDH release | < 10%
FNA / CGLSGLGVA-NH2 ([18F]FNA-labelled, C-amide) | – | ex vivo gamma counting | peptide, glioblastoma mouse model, blood | 60 min post injection, with: 500-fold excess CooP blocking | – | tissue uptake | 0.74 %ID/g
caspofungin | – | – | adult ICU patients, mITT, serum | dose not given, Baseline | – | bilirubin | 20.3 µmol/L
AUUCUUUUC (ssRNA) | U2AF2 | sequencing of bound RNA | RNA | motif only | – | Kd | 2250 nM
methyl-β-cyclodextrin | KCNH2 (Homo sapiens, UniProt Q12809) | steady-state activation, whole-cell patch clamp | – | – | – | maximum tail current density | 55 ± 14.3 pA/pF

Repeated from above:
Substance | target or system | assay | test system | setting | scale | endpoint | value
Teicoplanin | – | – | QC solution | 13 months, -40 °C, high QC level | – | recovery | 95.3%
